Measurements from different studies.
± gives the spread as reported.
Sequence of UniProt Q62968 (whole entry, looked up): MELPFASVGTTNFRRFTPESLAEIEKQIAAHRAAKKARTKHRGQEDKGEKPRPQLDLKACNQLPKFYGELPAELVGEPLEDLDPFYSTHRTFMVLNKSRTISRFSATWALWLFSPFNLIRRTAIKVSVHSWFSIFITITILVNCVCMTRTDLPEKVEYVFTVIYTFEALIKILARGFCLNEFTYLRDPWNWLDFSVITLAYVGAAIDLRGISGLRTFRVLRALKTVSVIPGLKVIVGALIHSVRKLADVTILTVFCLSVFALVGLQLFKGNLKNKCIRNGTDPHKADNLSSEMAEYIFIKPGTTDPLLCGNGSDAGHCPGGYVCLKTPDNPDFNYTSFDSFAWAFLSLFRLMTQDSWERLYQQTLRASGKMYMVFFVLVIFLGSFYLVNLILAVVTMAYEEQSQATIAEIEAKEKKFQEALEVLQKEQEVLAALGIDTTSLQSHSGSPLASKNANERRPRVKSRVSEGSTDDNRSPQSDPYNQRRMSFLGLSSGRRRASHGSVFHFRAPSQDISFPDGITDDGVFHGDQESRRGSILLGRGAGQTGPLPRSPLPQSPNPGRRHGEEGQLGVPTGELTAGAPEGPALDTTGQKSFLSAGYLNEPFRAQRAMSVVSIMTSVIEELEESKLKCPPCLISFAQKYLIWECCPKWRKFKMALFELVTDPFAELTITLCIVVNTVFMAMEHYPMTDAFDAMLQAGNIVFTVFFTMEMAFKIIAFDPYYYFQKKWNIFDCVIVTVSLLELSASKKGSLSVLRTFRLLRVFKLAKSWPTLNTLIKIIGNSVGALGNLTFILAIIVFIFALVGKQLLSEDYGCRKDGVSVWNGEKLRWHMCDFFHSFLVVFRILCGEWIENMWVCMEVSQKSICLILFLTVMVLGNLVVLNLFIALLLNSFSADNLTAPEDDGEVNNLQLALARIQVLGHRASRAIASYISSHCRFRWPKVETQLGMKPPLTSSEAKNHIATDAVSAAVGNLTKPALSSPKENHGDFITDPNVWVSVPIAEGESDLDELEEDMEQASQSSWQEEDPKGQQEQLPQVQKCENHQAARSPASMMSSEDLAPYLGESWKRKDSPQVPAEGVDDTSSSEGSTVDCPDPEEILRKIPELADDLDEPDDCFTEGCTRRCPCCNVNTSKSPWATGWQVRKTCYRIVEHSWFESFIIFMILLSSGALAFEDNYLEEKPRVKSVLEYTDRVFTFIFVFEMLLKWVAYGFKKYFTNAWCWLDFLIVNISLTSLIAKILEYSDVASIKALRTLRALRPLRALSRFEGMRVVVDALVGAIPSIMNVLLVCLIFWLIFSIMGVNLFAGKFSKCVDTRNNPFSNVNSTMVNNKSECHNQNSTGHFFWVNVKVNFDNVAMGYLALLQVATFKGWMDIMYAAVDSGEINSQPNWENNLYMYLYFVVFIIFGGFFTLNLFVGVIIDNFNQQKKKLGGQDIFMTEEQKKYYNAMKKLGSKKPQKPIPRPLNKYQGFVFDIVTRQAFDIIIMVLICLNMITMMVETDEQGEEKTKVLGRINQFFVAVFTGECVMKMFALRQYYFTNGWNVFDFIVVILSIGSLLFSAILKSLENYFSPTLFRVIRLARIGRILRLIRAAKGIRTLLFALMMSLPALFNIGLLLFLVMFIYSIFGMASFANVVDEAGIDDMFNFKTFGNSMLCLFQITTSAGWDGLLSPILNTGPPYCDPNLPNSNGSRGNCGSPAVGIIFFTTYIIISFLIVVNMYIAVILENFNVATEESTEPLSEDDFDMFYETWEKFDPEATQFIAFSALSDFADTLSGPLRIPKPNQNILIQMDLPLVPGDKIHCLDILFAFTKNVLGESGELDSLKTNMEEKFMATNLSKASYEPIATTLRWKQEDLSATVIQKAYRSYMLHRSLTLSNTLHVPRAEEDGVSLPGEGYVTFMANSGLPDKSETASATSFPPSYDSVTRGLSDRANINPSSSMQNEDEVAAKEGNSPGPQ
Sequence of UniProt P34972 (whole entry, looked up): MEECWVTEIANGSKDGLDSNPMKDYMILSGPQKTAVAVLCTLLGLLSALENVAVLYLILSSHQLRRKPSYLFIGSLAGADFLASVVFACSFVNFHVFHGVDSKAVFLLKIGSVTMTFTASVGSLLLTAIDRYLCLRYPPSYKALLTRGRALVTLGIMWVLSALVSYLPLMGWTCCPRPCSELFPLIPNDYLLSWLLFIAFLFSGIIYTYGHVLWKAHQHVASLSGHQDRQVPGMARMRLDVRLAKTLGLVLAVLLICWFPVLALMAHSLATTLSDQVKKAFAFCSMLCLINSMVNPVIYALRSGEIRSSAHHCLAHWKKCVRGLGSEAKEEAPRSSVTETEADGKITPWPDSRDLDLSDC
Sequence of UniProt P0A725 (whole entry, looked up): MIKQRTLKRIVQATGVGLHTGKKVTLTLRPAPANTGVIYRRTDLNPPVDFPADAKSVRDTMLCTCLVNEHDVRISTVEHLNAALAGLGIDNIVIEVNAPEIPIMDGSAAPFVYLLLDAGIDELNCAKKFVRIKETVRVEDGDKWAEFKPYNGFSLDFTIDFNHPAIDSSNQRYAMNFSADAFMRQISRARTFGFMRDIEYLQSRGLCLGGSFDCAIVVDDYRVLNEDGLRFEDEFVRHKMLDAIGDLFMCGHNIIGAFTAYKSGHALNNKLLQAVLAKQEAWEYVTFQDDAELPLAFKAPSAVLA
Sequence of UniProt P07550 (whole entry, looked up): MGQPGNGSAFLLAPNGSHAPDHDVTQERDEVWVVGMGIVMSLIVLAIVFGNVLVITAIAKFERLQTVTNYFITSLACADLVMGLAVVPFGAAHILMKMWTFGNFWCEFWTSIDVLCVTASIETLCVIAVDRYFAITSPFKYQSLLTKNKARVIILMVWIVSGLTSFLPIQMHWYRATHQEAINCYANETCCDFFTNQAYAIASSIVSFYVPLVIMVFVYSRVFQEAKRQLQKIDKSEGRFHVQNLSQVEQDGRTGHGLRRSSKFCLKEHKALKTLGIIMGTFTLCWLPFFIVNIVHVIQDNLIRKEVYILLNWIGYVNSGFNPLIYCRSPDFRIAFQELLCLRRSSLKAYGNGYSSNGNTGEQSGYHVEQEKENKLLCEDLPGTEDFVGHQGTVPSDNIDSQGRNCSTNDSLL
Sequence of UniProt P25123 (whole entry, unmodified, looked up): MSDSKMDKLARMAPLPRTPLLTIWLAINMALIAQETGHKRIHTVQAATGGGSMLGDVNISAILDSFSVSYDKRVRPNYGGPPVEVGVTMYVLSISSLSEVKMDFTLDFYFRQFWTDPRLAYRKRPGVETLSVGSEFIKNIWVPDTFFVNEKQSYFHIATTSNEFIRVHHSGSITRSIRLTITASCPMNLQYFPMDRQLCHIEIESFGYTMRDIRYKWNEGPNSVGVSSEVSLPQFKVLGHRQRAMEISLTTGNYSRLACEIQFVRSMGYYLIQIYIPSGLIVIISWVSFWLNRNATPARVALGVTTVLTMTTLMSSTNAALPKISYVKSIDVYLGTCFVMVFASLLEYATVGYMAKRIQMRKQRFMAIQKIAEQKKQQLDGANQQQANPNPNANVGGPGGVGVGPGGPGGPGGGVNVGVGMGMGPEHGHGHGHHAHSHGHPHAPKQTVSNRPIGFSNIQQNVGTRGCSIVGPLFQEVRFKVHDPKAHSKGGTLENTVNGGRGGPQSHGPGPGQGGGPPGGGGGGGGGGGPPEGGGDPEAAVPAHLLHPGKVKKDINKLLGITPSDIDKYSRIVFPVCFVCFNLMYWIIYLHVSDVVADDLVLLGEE
Sequence of UniProt P47746 (whole entry, looked up): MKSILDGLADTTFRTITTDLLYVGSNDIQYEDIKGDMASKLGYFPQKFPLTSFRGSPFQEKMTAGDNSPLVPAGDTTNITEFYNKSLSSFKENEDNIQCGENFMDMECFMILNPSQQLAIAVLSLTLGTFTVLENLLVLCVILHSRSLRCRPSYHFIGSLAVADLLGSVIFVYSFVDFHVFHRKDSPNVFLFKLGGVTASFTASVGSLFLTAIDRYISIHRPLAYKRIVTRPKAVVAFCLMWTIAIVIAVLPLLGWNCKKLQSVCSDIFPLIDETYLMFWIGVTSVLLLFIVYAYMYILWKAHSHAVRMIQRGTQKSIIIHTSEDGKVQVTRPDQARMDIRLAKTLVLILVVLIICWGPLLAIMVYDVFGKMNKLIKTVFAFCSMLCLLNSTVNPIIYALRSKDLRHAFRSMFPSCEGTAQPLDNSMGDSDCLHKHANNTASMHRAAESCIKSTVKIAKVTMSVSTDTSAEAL

SMILES	tested on	assay	system	setting	how to read	measurement	value
CC(C)C[C@H](NC=O)C(=O)N[C@@H](C)C(=O)N[C@@H](C)C(=O)N[C@@H](CC(=O)O)C(=O)N[C@@H](CC(C)C)C(=O)N[C@@H](CC(C)C)C(=O)N[C@@H](C)C(=O)N[C@@H](C)C(=O)N[C@@H](CC(C)C)C(=O)NCC(=O)N[C@@H](CC(=O)O)C(=O)N[C@@H](CC(C)C)C(=O)N[C@@H](C)C(=O)N[C@@H](CCCCN)C(=O)N[C@@H](Cc1c[nH]c2ccccc12)C(=O)N[C@@H](CC(C)C)C(=O)N[C@@H](CC(C)C)C(=O)N[C@@H](CC(=O)O)C(=O)N[C@@H](C)C(=O)N[C@@H](CC(C)C)C(=O)N[C@@H](C)C(=O)N[C@@H](CCCCN)C(=O)N[C@@H](C)C(=O)N[C@@H](C)C(=O)N[C@@H](CCCCN)C(=O)N[C@@H](CCCCN)C(=O)O (racemic)		membrane binding, stopped-flow FRET	POPC vesicles	pH 7.5, room temperature		koff	0.11 s⁻¹
COC(=O)c1ccc2c(C=C3C(=O)C4CCN3CC4)cn(Cc3ccccc3)c2c1	Cannabinoid receptor 2 (CNR2, Homo sapiens, UniProt P34972)	forskolin-stimulated	CHO-hCB2	10 µM	reference: basal	increase in cAMP	218 ± 46.3%
CC[C@H](C)[C@H](NC(=O)[C@H](CC(N)=O)NC(=O)[C@H](CCCCN)NC(=O)[C@@H](NC(=O)[C@@H](N)CC(C)C)[C@@H](C)CC)C(=O)NCC(=O)N[C@H](C(=O)N[C@H](C(=O)N[C@H](C(=O)N[C@@H](CO)C(=O)N[C@@H](CCCCN)C(=O)N[C@H](C(=O)N[C@H](C(=O)N[C@@H](CCCCN)C(=O)N[C@H](C(=O)N[C@H](C(=O)N[C@@H](Cc1c[nH]c2ccccc12)C(=O)N[C@@H](CCCCN)C(=O)N[C@@H](Cc1ccccc1)C(=O)N[C@H](C(=O)N[C@@H](CC(=O)O)C(=O)N[C@@H](CC(=O)O)C(=O)O)[C@@H](C)O)C(C)C)[C@@H](C)O)[C@@H](C)CC)[C@@H](C)CC)C(C)C)[C@@H](C)CC)[C@@H](C)O		lipid vesicle binding, stopped-flow FRET	POPC vesicles	pH 7.5		kon	15000 M^–1 s^–1
CCOC(=O)C1C(OC(c2ccc(Cl)cc2)c2ccc(Cl)cc2)CC2CCC1N2C (single isomer, unassigned)	Beta-2 adrenergic receptor (ADRB2, Homo sapiens, UniProt P07550)	binding, radioligand displacement		inactive if below 75% at 10000 nM, together with: [3H]CGP-12177		Ki	inactive
CC(C)C[C@H](NC(=O)[C@H](Cc1ccccc1)NC(=O)CNC(=O)CNC(=O)[C@@H](N)Cc1ccc(O)cc1)C(=O)O		K+ current, agonist, photo-uncaging	rat locus coeruleus neurons	dendritic currents		reversal potential	-132 ± 4.8 mV
CC[C@H](C)[C@H](NC(=O)[C@H](CCCCN)NC(=O)CNC(=O)[C@@H](NC(=O)[C@@H](NC(=O)[C@H](CC(N)=O)NC(=O)[C@H](CC(=O)O)NC(=O)[C@@H](N)CC(=O)O)C(C)C)[C@@H](C)CC)C(=O)N[C@@H](Cc1c[nH]c2ccccc12)C(=O)N[C@@H](CO)C(=O)N[C@@H](CCCCN)C(=O)N[C@@H](CC(C)C)C(=O)N[C@H](C(=O)N[C@H](C(=O)N[C@H](C(=O)N[C@H](C(=O)N[C@H](C(=O)N[C@@H](CCCCN)C(=O)N[C@H](C(=O)N[C@@H](Cc1ccccc1)C(=O)N[C@H](C(=O)N[C@@H](CCCCN)C(=O)O)[C@@H](C)O)[C@@H](C)CC)[C@@H](C)O)[C@@H](C)CC)C(C)C)[C@@H](C)O)[C@@H](C)CC		lipid vesicle dissociation	POPC vesicles	pH 7.5		koff	0.48 s^–1
O=C(N=P12CN3CN(CN(C3)C1)C2)c1ccccn1.[Cl][Pd][Cl]	Albumin (ALB, Homo sapiens, UniProt P02768)	adduct reversibility, circular dichroism		concentration not given, 1 h, together with: 3-fold citric acid		CD band decrease	12%
C[C@@](O)(C(F)F)[C@H](NC(=O)c1ccc(C#CC#CC2CC2)cc1)C(=O)NO	UDP-3-O-acyl-N-acetylglucosamine deacetylase (Escherichia coli K-12, UniProt P0A725)	enzyme activity, inhibitor				k6 (EI* to EI rate)	0.0058 ± 0.0006 min⁻¹
O=C1C(=Cc2cn(Cc3ccc(F)cc3)c3ccccc23)N2CCC1CC2	Cannabinoid receptor 1 (Cnr1, Mus musculus, UniProt P47746)		Neuro2A	1 µM, 5 min, together with: CB1 antagonist O-2050 1 µM		adenylyl cyclase activity	inhibited
CC[C@H](C)[C@H](NC(=O)[C@H](Cc1c[nH]c2ccccc12)NC(=O)[C@H](CCCCN)NC(=O)[C@@H](NC(=O)[C@H](CC(C)C)NC(=O)[C@H](CCCCN)NC(=O)CNC(=O)[C@@H](NC(=O)[C@@H](NC(=O)[C@H](CO)NC(=O)[C@@H](NC(=O)[C@@H](NC(=O)[C@H](CCCCN)NC(=O)[C@H](CCC(N)=O)NC(=O)[C@H](C)NC(=O)[C@H](CCSC)NC=O)[C@@H](C)CC)[C@@H](C)CC)[C@@H](C)O)[C@@H](C)CC)C(C)C)C(=O)N[C@H](C(=O)N[C@@H](CCCCN)C(=O)N[C@H](C(=O)N[C@H](C(=O)N[C@@H](CC(N)=O)C(=O)N[C@@H](CCCCN)C(=O)N[C@@H](Cc1ccccc1)C(=O)N[C@H](C(=O)N[C@@H](CCCCN)C(=O)N[C@@H](CCCCN)C(=O)O)[C@@H](C)O)C(C)C)[C@@H](C)O)[C@@H](C)CC (racemic)		membrane binding, stopped-flow FRET	POPC vesicles	pH 7.5, room temperature		koff	10 s⁻¹
C=C(C)C1C2OC(=O)C1C1(O)CC3OC34C(=O)OC2C14C (stereo not shown)	Rdl (Drosophila melanogaster, UniProt P25123, T305V)	GABA-induced current, antagonist, two-electrode voltage clamp	Xenopus oocytes	concentration not given	reference: mutant over wild type	IC50 fold increase	5000 fold
CCN(Cc1ccccc1)C(=O)CCc1nc(CN2CCN(C(=O)Cc3ccc(OC)c(OC)c3)CC2)no1	Sodium channel protein type 10 subunit alpha (Scn10a, Rattus norvegicus, UniProt Q62968)	whole-cell patch clamp	rat DRG neurons	300 nM		V1/2 of inactivation	-64.5 ± 10.1 mV
CC[C@H](C)[C@H](N)C(=O)N[C@H](C(=O)N[C@@H](CO)C(=O)N[C@H](C(=O)N[C@H](C(=O)NCC(=O)N[C@@H](CC(=O)O)C(=O)N[C@@H](CC(C)C)C(=O)N[C@H](C(=O)N[C@@H](CCCCN)C(=O)N[C@@H](Cc1c[nH]c2ccccc12)C(=O)N[C@H](C(=O)N[C@H](C(=O)N[C@@H](CC(=O)O)C(=O)N[C@H](C(=O)N[C@H](C(=O)N[C@@H](CC(N)=O)C(=O)N[C@@H](CCCCN)C(=O)N[C@@H](Cc1ccccc1)C(=O)N[C@H](C(=O)N[C@@H](CCCCN)C(=O)N[C@@H](CCCCN)C(=O)O)[C@@H](C)O)C(C)C)[C@@H](C)O)[C@@H](C)CC)[C@@H](C)CC)C(C)C)[C@@H](C)CC)[C@@H](C)O)[C@@H](C)CC		lipid vesicle binding, stopped-flow FRET	POPC vesicles	pH 7.5		kon	7100 M^–1 s^–1
CC(C)C[C@H](NC(=O)[C@H](Cc1ccccc1)NC(=O)CNC(=O)CNC(=O)[C@@H](N)Cc1ccc(OC(C(=O)O)c2ccccc2[N+](=O)[O-])cc1)C(=O)O (stereo partly shown)		K+ current, agonist, photo-uncaging	rat locus coeruleus neurons			time to peak current	1 to 2 s
CC[C@H](C)[C@H](NC(=O)[C@H](CCC(N)=O)NC(=O)[C@H](CC(C)C)NC(=O)[C@@H](NC(=O)CNC(=O)[C@H](Cc1ccc(O)cc1)NC(=O)[C@H](CC(=O)O)NC(=O)[C@@H](NC(=O)[C@H](CO)NC(=O)CNC(=O)[C@H](CC(=O)O)NC(=O)[C@@H](NC(=O)[C@H](CC(N)=O)NC(=O)[C@H](CCCNC(=N)N)NC(=O)[C@H](CC(N)=O)NC(=O)[C@@H](NC(=O)[C@H](C)NC(=O)[C@H](CCC(N)=O)NC(=O)[C@@H](NC(=O)[C@H](CC(N)=O)NC(=O)[C@H](Cc1ccccc1)NC(=O)[C@H](CC(N)=O)NC(=O)[C@H](CO)NC(=O)[C@H](CCC(=O)O)NC(=O)[C@H](Cc1ccccc1)NC(=O)[C@H](CCCCN)NC(=O)[C@H](C)NC(=O)[C@H](C)NC(=O)[C@H](CO)NC(=O)[C@@H](NC(=O)[C@H](Cc1c[nH]c2ccccc12)NC(=O)[C@H](CC(N)=O)NC(=O)CNC(=O)[C@H](CC(C)C)NC(=O)[C@H](CO)NC(=O)[C@H](Cc1ccc(O)cc1)NC(=O)CNC(=O)[C@H](CCCNC(=N)N)NC(=O)[C@H](Cc1ccc(O)cc1)NC(=O)[C@H](CC(N)=O)NC(=O)[C@@H](N)CC(=O)O)C(C)C)[C@@H](C)O)[C@@H](C)O)[C@@H](C)O)[C@@H](C)O)[C@@H](C)CC)C(=O)O	Periplasmic serine endoprotease DegP (degP, Escherichia coli, UniProt P0C0V0, S236A)	oligomer formation, sedimentation velocity		30 µM, together with: protein 20 µM		18-mers fraction	24%
CC[C@H](C)[C@H](N)C(=O)N[C@H](C(=O)N[C@@H](CO)C(=O)N[C@H](C(=O)N[C@H](C(=O)NCC(=O)N[C@@H](CC(=O)O)C(=O)N[C@@H](Cc1c[nH]c2ccccc12)C(=O)N[C@H](C(=O)N[C@@H](CCCCN)C(=O)N[C@@H](CC(C)C)C(=O)N[C@H](C(=O)N[C@H](C(=O)N[C@@H](CC(=O)O)C(=O)N[C@H](C(=O)N[C@H](C(=O)N[C@@H](CC(N)=O)C(=O)N[C@@H](CCCCN)C(=O)N[C@@H](Cc1ccccc1)C(=O)N[C@H](C(=O)N[C@@H](CCCCN)C(=O)N[C@@H](CCCCN)C(=O)O)[C@@H](C)O)C(C)C)[C@@H](C)O)[C@@H](C)CC)[C@@H](C)CC)C(C)C)[C@@H](C)CC)[C@@H](C)O)[C@@H](C)CC		lipid vesicle binding, stopped-flow FRET	POPC vesicles	pH 7.5		kon	12000 M^–1 s^–1
